Assay results collected from several papers.
Parts stem from different laboratories: compare values within a part only.

Series 1 — method: universal PBM; form: double-stranded DNA, one strand shown; medium: in vitro; concentration: not given; direction: higher = stronger binding
Target: Sal-like protein 4, full length isoform B (SALL4, Homo sapiens, UniProt Q9UJQ4-2, residues 1-616)
Setting: 8-mer, flanks averaged, mean of replicates
Oligonucleotide	E-score
CAGAACAA	0.174
GCTGGCCC	-0.378
CATTATTA	0.422
CCTCGGTA	-0.224
ATGTTCAC	0.119
GGATAAAC	0.144

Series 2 — method: RNA Bind-n-Seq; form: RNA; medium: in vitro; concentration: 200 nM; setting: whole 134-nt RNA, ends assumed; with: 150 mM KCl; relative to: input library; direction: higher = stronger binding
Target: Fragile X messenger ribonucleoprotein 1, C-terminal low-complexity region (Fmr1, Mus musculus, UniProt P35922)
Oligonucleotide	log2 enrichment
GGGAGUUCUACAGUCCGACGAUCCUCAAGUCCUGUGCUACACAUCGUAUGUACCGAAUCGGAAAGGUUUUUGGUGGAAAGUAUUAUGUUACGCCGUUCGGAUCUGCACUUCCAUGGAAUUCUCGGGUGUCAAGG	-0.317
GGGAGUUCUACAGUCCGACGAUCUUUCUCCACAGGAGCCCCGCAAGUGAGCCAGCCACUGCGAGAGCAGAGUGAGGAUAUACCUGGAGCCAUUUCCUCUGCCCUGGCAGCCAUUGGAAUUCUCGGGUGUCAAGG	0.484
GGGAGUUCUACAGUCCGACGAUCUCCUGUGCUACACAUCGUAUGUACCGAAUCGGGGCCCCCCGGCCCCCCGGGCCCCCCGGGAAAGUAUUAUGUUACGCCGUUCGGAUCUGCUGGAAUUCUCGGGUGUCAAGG	-0.0428
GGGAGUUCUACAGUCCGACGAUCCCUCAAGUCCUGUGCUACACAUCGUAUGUACCGAAUCGGAAGGGAAGGAAGGGAAAGUAUUAUGUUACGCCGUUCGGAUCUGCACUUCCAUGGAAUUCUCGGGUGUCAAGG	-0.394
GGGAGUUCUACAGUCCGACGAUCCUCAAGUCCUGUGCUACACAUCGUAUGUACCGAAUCGGCCGGCCGGGGCCGGGAAAGUAUUAUGUUACGCCGUUCGGAUCUGCACUUCCAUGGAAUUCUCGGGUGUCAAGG	-0.0327

Series 3 — method: protein binding microarray; form: double-stranded DNA, one strand shown; medium: in vitro; concentration: not given; relative to: not given; direction: higher = stronger binding
Target: Histone acetyltransferase KAT6A, winged helix 2, GST fusion (KAT6A, Homo sapiens, UniProt Q92794, residues 85-181)
Setting: 8-mer, flanks averaged, mean of 2 arrays, mostly near background
Target sequence (chain): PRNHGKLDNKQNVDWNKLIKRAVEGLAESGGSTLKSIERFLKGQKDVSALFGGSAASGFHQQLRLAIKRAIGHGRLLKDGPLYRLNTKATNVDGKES
Oligonucleotide	E-score
TATATTGA	-0.0473
AGTCTTAA	-0.252
GAACGATC	-0.0441
CATTTAGC	-0.0101
AAGTTTGC	0.0109
CCAGGCCA	-0.0379

Single results of other studies
Substance	target	test	test system	conditions	scale	endpoint	value
PhoQ, residues 284 288 289 292 302 303 ASTSDA	PhoP, residues 12 14 15 18 19 LFHKL (Escherichia coli, UniProt P23836)	Sort-seq, item: YFP reporter	E. coli	PhoQ-PhoP variant library, with: 10 µM Mg2+	relative to: high Mg2+ state, higher = stronger signaling	fold induction	15.2

For quick reference, copied from above (series 1):
Oligonucleotide	E-score
CATTATTA	0.422
CCTCGGTA	-0.224
